Measured values of several laboratories.
Compare with care: the assays were run in different laboratories. Several values in a cell are separate wells, animals, samples, runs or records. ± gives the spread as reported.
UniProt P06873, sequence (whole entry, looked up): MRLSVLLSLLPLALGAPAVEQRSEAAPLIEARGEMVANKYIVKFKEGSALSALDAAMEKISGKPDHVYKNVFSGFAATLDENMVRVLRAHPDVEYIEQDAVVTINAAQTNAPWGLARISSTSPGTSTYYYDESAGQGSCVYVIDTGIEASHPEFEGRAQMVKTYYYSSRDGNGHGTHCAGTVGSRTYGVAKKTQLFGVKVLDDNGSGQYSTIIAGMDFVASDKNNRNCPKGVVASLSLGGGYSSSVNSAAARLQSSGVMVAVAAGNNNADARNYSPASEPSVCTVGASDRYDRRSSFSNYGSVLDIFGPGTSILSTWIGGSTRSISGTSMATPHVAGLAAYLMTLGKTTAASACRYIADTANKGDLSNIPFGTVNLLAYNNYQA

SMILES	target or system	test	test system	setting	scale	quantity	value
COc1cccc(OC)c1-c1cc(C(=O)NC2(C(=O)O)C3CC4CC(C3)CC2C4)nn1-c1ccc(C(=O)N(C)CCCN(C)CCCN(C)C(=O)[C@H](CCCCNC(=O)[C@H](CC(C)C)NC(=O)C2OC2C(=O)O)NC(=O)CN2CCN(CC(=O)[O-])CCN(CC(=O)[O-])CCN(CC(=O)[O-])CC2)cc1C(C)C.[177Lu+3] (mixture of isomers)			mouse HT-29 xenograft, small intestine	72 h post injection, biodistribution		tissue uptake	0.282 %ID/g
CCCC[C@H](NC(=O)CNC(=O)CNC(=O)[C@H](CCCCNC(=O)[C@H](CC(=O)O)NC(=O)C(C)c1ccc(CC(C)C)cc1)NC(=O)CN1CCN(CC(=O)O)CCN(CC(=O)O)CCN(CC(=O)O)CC1)C(=O)N[C@H]1CC(=O)NCCCC[C@@H](C(N)=O)NC(=O)[C@H](Cc2c[nH]c3ccccc23)NC(=O)[C@H](CCCNC(=N)N)NC(=O)[C@@H](Cc2ccccc2)NC(=O)[C@H](Cc2c[nH]cn2)NC1=O (stereo partly drawn) [lutetium-177 labelled]			C57 mouse, lung	intravenous, 2 h, together with: 10 µg NDP-MSH co-injection		tissue uptake	1.22 ± 0.56 %ID/g
CCCC[C@H](NC(C)=O)C(=O)N[C@@H](CO)C(=O)N[C@H](C(=O)N1CCC[C@H]1C(=O)N[C@]1(C)CCCCCCC=CCCC[C@@](C)(C(=O)N[C@@H](Cc2ccccc2)C(=O)N[C@@H](CCCCN)C(=O)N[C@@H](CCCNC(=N)N)C(=O)N[C@@H](CC(C)C)C(=O)N[C@@H](CCC(N)=O)C(N)=O)NC(=O)[C@H](CCCNC(=N)N)NC(=O)[C@H](CCCC)NC(=O)[C@H](CC(C)C)NC(=O)[C@H](CCCNC(=N)N)NC(=O)[C@H](CCCNC(=N)N)NC(=O)[C@H](CCCNC(=N)N)NC1=O)[C@@H](C)O	Proteinase K (PROK, Engyodontium album, UniProt P06873)	proteolytic stability, LC-MS		25 µM, 615.1 min, pH 7.4		remaining intact peptide	37.9% and 35%
CC(C)Cc1ccc(C(C)C(=O)N[C@@H](CCCCNC(=O)CCOCCOCCOCCOCCOCCOCCNC(=O)CN2CCN(CC(=O)[O-])CCN(CC(=O)[O-])CCN(CC(=O)[O-])CC2)C(=O)Nc2cccc3c(C(=O)NCC(=O)N4CC(F)(F)C[C@H]4C#N)ccnc23)cc1.[177Lu+3] (stereo partly drawn)			mouse, U-87 MG tumour xenograft, brain	24 h		tissue uptake	0.04 ± 0.01 %ID/g
CC1CCC(C(C)C)C(OC(=O)Cn2c(-c3ccc(Br)cc3)[n+](C)c3ccccc32)C1.[Cl-] (stereo not drawn)	Trypanosoma cruzi	reporter mRNA translation, inhibitor, measured: Renilla luciferase mRNA	cell-free extract	concentration not given, test 1	reference: positive over negative control	translation activity	82.3% and 74.3%
[11CH3]N1CCC(NC(=O)c2cc(-c3c(O)cc(O)cc3Oc3ccc([N+](=O)[O-])cc3)on2)CC1			Wistar rat, female, healthy, spleen	intravenous, 2 min		tissue uptake	0.6 ± 0.1 %ID
COc1cccc(OC)c1-c1cc(C(=O)NC2(C(=O)O)C3CC4CC(C3)CC2C4)nn1-c1ccc(C(=O)NCCNC(=O)[C@H](CCCCNC(=O)[C@H](CC(C)C)NC(=O)C2OC2C(=O)O)NC(=O)CN2CCN(CC(=O)[O-])CCN(CC(=O)[O-])CCN(CC(=O)[O-])CC2)cc1C(C)C.[177Lu+3] (mixture of isomers)			mouse, HT-29 xenograft, lung	168 h post injection		tissue uptake	0.9 %ID/g
N#C[C@@H]1CC(F)(F)CN1C(=O)CNC(=O)c1ccnc2c(NC(=O)CCOCCOCCOCCOCCOCCOCCNC(=O)[C@H](CCCCNC(=O)CN3CCN(CC(=O)[O-])CCN(CC(=O)[O-])CCN(CC(=O)[O-])CC3)NC(=O)CCCc3ccc(I)cc3)cccc12.[177Lu+3]			mouse, U-87 MG tumour xenograft, brain	1 h		tissue uptake	0.15 ± 0.03 %ID/g
O=C(NCC1OC2CCC=CCCC2O1)c1ccc(COCCOCCOCC[18F])cc1 (stereo not drawn)			healthy female BALB/c nude mice, spleen	intravenous, 7.4 MBq per mouse, 15 min		tissue uptake	3.1 ± 0.2 %ID/g
N#C[C@@H]1CC(F)(F)CN1C(=O)CNC(=O)c1ccnc2c(NC(=O)[C@H](CCCCNC(=O)CCOCCOCCOCCOCCOCCOCCNC(=O)CN3CCN(CC(=O)[O-])CCN(CC(=O)[O-])CCN(CC(=O)[O-])CC3)NC(=O)CCCc3ccc(I)cc3)cccc12.[177Lu+3]			mouse, U-87 MG tumour xenograft, lung	96 h		tissue uptake	0.35 ± 0.24 %ID/g
O=C(NN(c1ccccc1)c1ccccc1)c1ccc([N+](=O)[O-])o1	Trypanosoma cruzi	reporter mRNA translation, inhibitor, measured: Renilla luciferase mRNA	cell-free extract	concentration not given, test 3	reference: positive over negative control	translation activity	97.5%
O=C(O)CCCOc1ccc([18F])cc1-c1cc(-c2ccccc2C(F)(F)F)n(-c2ccccc2)n1			mouse, urine	intravenous, dose not given, 360 min		tissue uptake	0.58 ± 0.15 %ID/g

A few entries again:
SMILES	target or system	test	test system	setting	scale	quantity	value
CC1CCC(C(C)C)C(OC(=O)Cn2c(-c3ccc(Br)cc3)[n+](C)c3ccccc32)C1.[Cl-] (stereo not drawn)	Trypanosoma cruzi	reporter mRNA translation, inhibitor, measured: Renilla luciferase mRNA	cell-free extract	concentration not given, test 1	reference: positive over negative control	translation activity	82.3% and 74.3%
[11CH3]N1CCC(NC(=O)c2cc(-c3c(O)cc(O)cc3Oc3ccc([N+](=O)[O-])cc3)on2)CC1			Wistar rat, female, healthy, spleen	intravenous, 2 min		tissue uptake	0.6 ± 0.1 %ID
